Measurements gathered from unrelated publications.
Each numbered part is a random draw from the data of one study; scales do not carry over between parts.

Study 1
Target: Histone acetyltransferase KAT6A, both winged helices, GST fusion (KAT6A, Homo sapiens, UniProt Q92794, residues 1-181)
Method: protein binding microarray
Molecule type: double-stranded DNA, one strand shown
Medium: in vitro
Tested at: not given
Setting: 8-mer, flanks averaged, mean of 2 arrays, mostly near background
Reference: not given
Direction: higher = stronger binding
Target sequence (chain): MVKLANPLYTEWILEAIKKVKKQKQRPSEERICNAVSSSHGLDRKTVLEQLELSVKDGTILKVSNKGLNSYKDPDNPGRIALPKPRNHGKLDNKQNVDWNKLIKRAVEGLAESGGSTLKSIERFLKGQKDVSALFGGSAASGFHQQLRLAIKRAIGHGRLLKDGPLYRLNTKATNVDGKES
Oligonucleotide | E-score
AGTCCTCC | -0.0501
GGGTCTAA | 0.02
AGACTACT | -0.0687
CTGATCCA | -0.189
ACCGAGCC | 0.112
AGGGCTAT | -0.222
CCAAGTCA | -0.186
CCTATACG | -0.0969
GCATTTTA | 0.0156
GCCAGGCC | -0.0644
AATGAATA | -0.0681
AATCTCGG | 0.137
AAAAAAAC | 0.0441
AAGGAAAG | -0.0434
AGACACCT | 0.00346
GCCATTTA | -0.127
GCGGGGCA | 0.128
CAGGCTAG | -0.186
GCTAGACC | 0.0208
CTGTGGAA | -0.162
GGCCTCTA | -0.032
AGTTCTCC | -0.0331
ATACTAGC | -0.0625
CATCAAGC | -0.0026

Study 2
Target: PABPC1L2, full length, GST fusion (mouse, UniProt A0ABA7IW68)
Method: RNAcompete
Molecule type: RNA
Medium: in vitro
Tested at: 20 nM
Setting: 7-mer, probes averaged, single round
Reference: mean of 7-mers
Direction: higher = stronger binding
Construct (chain): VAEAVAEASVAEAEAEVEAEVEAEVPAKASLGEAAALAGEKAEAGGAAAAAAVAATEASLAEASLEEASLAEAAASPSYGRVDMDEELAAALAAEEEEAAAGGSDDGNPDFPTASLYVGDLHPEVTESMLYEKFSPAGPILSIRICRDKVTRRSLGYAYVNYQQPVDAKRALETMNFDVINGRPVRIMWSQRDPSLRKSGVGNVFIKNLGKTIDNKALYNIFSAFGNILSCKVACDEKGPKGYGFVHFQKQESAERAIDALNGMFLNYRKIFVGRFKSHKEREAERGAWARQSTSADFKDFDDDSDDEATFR
Oligonucleotide | 7-mer Z-score
AAUCUGC | -0.0192
UGCAGAG | -0.0573
AGUGAUC | -0.278
CGCGACG | -0.146
GCGUCGU | -0.449
GGAUCGA | 0.204
AAUGCCC | 0.000733
CCGGGAC | -0.079
UCGGGAU | -0.0283
UAGUAGG | -0.199
UGGGUAA | 0.234
GCUUGAG | -0.0101
AAUUCGG | 0.218
GAUAUUU | -0.244
AGCUCAC | -0.318
GUCUCCG | -0.418
AGUGAAC | -0.15
CCCUGGU | -0.412
AGGUACG | -0.00289
AGUCAUA | -0.146
GCCGCCC | -0.45
AUGGUAA | 0.108
CUGCGCA | -0.22
UAGCAUC | -0.148
AUUAUCG | -0.191

Study 3
Target: Interferon regulatory factor 7, full length, phosphomimetic (IRF7, Homo sapiens, UniProt Q92985, residues 1-503, S101K/S471D/S472D/S475D/S476D/S477D/S483D/S484D/S487D)
Method: protein-binding microarray
Molecule type: double-stranded DNA, one strand shown
Medium: in vitro
Tested at: 250 nM
Setting: 60-bp whole probe
Together with: salmon DNA 0.4 mg/ml
Reference: random background probes
Direction: higher = stronger binding
Shared flanks, not repeated: GCCTAGCAC … GTCTTGATTCGCTTGACGCTGCTG
Construct (chain): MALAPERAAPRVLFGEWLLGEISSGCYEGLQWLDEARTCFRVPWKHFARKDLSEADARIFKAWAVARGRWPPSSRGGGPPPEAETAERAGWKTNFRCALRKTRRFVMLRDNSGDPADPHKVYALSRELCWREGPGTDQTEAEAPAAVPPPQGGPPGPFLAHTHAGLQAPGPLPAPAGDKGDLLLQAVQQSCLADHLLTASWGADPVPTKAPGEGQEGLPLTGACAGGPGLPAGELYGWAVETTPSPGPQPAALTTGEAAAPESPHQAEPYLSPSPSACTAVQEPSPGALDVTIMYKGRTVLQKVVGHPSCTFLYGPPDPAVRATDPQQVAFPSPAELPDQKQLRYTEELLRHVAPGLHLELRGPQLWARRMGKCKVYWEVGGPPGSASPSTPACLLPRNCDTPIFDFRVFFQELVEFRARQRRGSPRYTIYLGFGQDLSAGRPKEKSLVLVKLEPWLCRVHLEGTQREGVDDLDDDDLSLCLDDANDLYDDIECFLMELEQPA
Oligonucleotide | log fluorescence [z-score]
TTAGGTCTCGGTTTCGGTGAGTGCTAG | 7.03
TCAGAACTGGGGTATCGATTAGTGCTA | 0.148
TTAGGTCTCGGACTGCGTTAGTGCTAG | 0.406
TTAGAATTGGGGTATCGATTAGTGCTA | 0.232
TTAGATATCAGTATTGATTAGTGCTAG | 0.0214
TCATTCTTCCCTGTGAAACTGTGCTAG | 1.47
TTAGGTCTCCTACTGATTTAGTGCTAG | -0.208
GACGGTTTCAACTATCGGGACGTGCTA | 0.437
CTGTTTTTGCTTTCCTTCTTGTGCTAG | 3.07
AACGATATCAGTATCGAGACGTGCTAG | 0.0821
GACGAACTGGGGTTTCTAGACGTGCTA | -0.155
GACGGCATCCTACTGCTGACGTGCTAG | -0.618
TCATTTGTTTCACTTCCTACTGTGCTA | 3.07
GACGGTCTCGGACTCGGGACGTGCTAG | 0.43
GACGGTCTCGGTCTCTGGACGTGCTAG | 0.995
GTACATCTCTCTTAAATAGGGTGCTAG | 0.842
GACGGTATCCTTTTGCTGACGTGCTAG | 0.93
GACGAACCGAGTTTCGAGACGTGCTAG | 4.32
TCAGATATCAGTCTCGATTAGTGCTAG | 1.76
GACTGTTCCGGTTTCGGGACGTGCTAG | 5.31
GACGGTTTCGACTTTCGGGCCGTGCTA | 10.3

Study 4
Target: RNA binding protein fox-1 homolog 2, RRM domain, GST-SBP tag (RBFOX2, Homo sapiens, UniProt O43251-10, residues 100-194)
Method: RNA Bind-n-Seq
Molecule type: RNA
Medium: in vitro
Tested at: 365 nM
Setting: natural RNA segment, single round, ends assumed
Reference: no-protein control
Direction: higher = stronger binding
Shared flanks, not repeated: GGGAGUUCUACAGUCCGACGAUC … UGGAAUUCUCGGGUGCCAA
Residues (chain): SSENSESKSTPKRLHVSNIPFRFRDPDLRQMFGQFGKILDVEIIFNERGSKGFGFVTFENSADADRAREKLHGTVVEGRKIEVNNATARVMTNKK
Oligonucleotide | RBNS enrichment (R)
UGGGGUUUGGAUUUCCCCAGGAAGAUGGAGAAUGGAAUACUCACUCUUGGGUCUAAUCUUUCCCCUUGACCCAGAACUUCCUCCCCACAAAAAUGCCUUUAAAAACCUUC | 0.809
AUUUUGAGCCAUUAAUGAUUUUGGGUUUUUUAAUCCAGAAGGUAUAUAAAAGCCUUUUCAGAGUUUUCAUCUGAUUUGUCCUGAGGAUCUAGUUCUAUCAAAUACCUUAU | 0.493
AGAAAUGGCCCGUGAGACACAUAGCAGUAUUCCAUCGGCUUGGGUUGGUUCCAGUGUCAGAAGCAAGCACAGUUAUUGCUGUGUCUUCAGCUCACAGAGCCGCGUCCCUC | 0.207
GUUCUUUGUCUGCCCAGCUAUUGGAGGAUGGGAAGUGGAGGGAGGGUCACUCUUUCCCUCUUACUGUAGUUUCCUAGAUUUAUCUGAGGAAAAGUGAGAUGUCUUCACGC | 0.306
AGUAUUUCAUAUAUAUACAUAUAUAUGCACCUAUAUAAUGUGUAUAUAUAUAAAAAGGCAGCCAUUGCUAUUGCAAUUCAUUUAAUAAAGCUUUAGUUUAAACAAAAGUA | 0.56
CUACACCCCGCUUCUCCCGGACUCUCCCAGCGGACAGCCCCCCAGCCCCACAGCCUGAGCCUCCCAGCUGCCAUGUGCCUGUUGCACACCUGCACACACGCCCUGGCACA | 0.822
AUGUCAUUUUGCCCUCAAUCUUGGAAUUUCUCCCAGGGCCCUUGUAGUCUUGUGCUGUCUCCUGUCCUCGUCCAUUUUAGAGCAAGACGGGAGGAAAAGGCAUUUCCAGC | 0.364
AGGUGAAUCUCUGGGUUAGGACCAGUAUGGUUUGCAUAGCAAGUUCCAGAGUACACAGUGAAACACUUGUCUUUUUUAAAAAACAAAAGCUAGCUACGAAUUUUUAAAGA | 0.886
GAGGGUGGGGUACUGGAGUUAGAUCUCUAAGCCCCUCCUGGAACCCUCAUUUUCCCCACUCUCAAUGUCCCAGUGUCCAGCGUGACUAAGGACACGGGCCCCCUUCCGUC | 0.627
AAUAAAUUUCUUUGAUGUCUUCCCUACUUUCUCCACAUCAAUCAGAUUAAAGUGUGUAACCCCAUCUAUACAGUUAGUCUUUAUUUAUUUUUUACCUUCUUAUUGCCUUU | 1.53
AGUCAAGAAGAAGCAGGAGCAGCCCUGCCCCCUGCCCCCAACUCCAUUAUUUAUUACGGAGCUGCCCCGCCUGGGUGGCCGGACCCCUGGGCCUUGGGGCUGUGGAUCCU | 0.293
UGUGUCGACAGACUCAAGGACACAACCACCUCGACCUGGUCAUGUGGCAUGCCUGUGUAUGUGUGUAACAGGAUUCUGAAUGUUAGGUUGUAAUGCUAUUCCUGUAUGGG | 7.16

Excerpt of the above (study 4):
Oligonucleotide | RBNS enrichment (R)
UGGGGUUUGGAUUUCCCCAGGAAGAUGGAGAAUGGAAUACUCACUCUUGGGUCUAAUCUUUCCCCUUGACCCAGAACUUCCUCCCCACAAAAAUGCCUUUAAAAACCUUC | 0.809
AUUUUGAGCCAUUAAUGAUUUUGGGUUUUUUAAUCCAGAAGGUAUAUAAAAGCCUUUUCAGAGUUUUCAUCUGAUUUGUCCUGAGGAUCUAGUUCUAUCAAAUACCUUAU | 0.493
AGAAAUGGCCCGUGAGACACAUAGCAGUAUUCCAUCGGCUUGGGUUGGUUCCAGUGUCAGAAGCAAGCACAGUUAUUGCUGUGUCUUCAGCUCACAGAGCCGCGUCCCUC | 0.207
GUUCUUUGUCUGCCCAGCUAUUGGAGGAUGGGAAGUGGAGGGAGGGUCACUCUUUCCCUCUUACUGUAGUUUCCUAGAUUUAUCUGAGGAAAAGUGAGAUGUCUUCACGC | 0.306
AGUAUUUCAUAUAUAUACAUAUAUAUGCACCUAUAUAAUGUGUAUAUAUAUAAAAAGGCAGCCAUUGCUAUUGCAAUUCAUUUAAUAAAGCUUUAGUUUAAACAAAAGUA | 0.56
CUACACCCCGCUUCUCCCGGACUCUCCCAGCGGACAGCCCCCCAGCCCCACAGCCUGAGCCUCCCAGCUGCCAUGUGCCUGUUGCACACCUGCACACACGCCCUGGCACA | 0.822
AUGUCAUUUUGCCCUCAAUCUUGGAAUUUCUCCCAGGGCCCUUGUAGUCUUGUGCUGUCUCCUGUCCUCGUCCAUUUUAGAGCAAGACGGGAGGAAAAGGCAUUUCCAGC | 0.364
AGGUGAAUCUCUGGGUUAGGACCAGUAUGGUUUGCAUAGCAAGUUCCAGAGUACACAGUGAAACACUUGUCUUUUUUAAAAAACAAAAGCUAGCUACGAAUUUUUAAAGA | 0.886
GAGGGUGGGGUACUGGAGUUAGAUCUCUAAGCCCCUCCUGGAACCCUCAUUUUCCCCACUCUCAAUGUCCCAGUGUCCAGCGUGACUAAGGACACGGGCCCCCUUCCGUC | 0.627
AAUAAAUUUCUUUGAUGUCUUCCCUACUUUCUCCACAUCAAUCAGAUUAAAGUGUGUAACCCCAUCUAUACAGUUAGUCUUUAUUUAUUUUUUACCUUCUUAUUGCCUUU | 1.53
AGUCAAGAAGAAGCAGGAGCAGCCCUGCCCCCUGCCCCCAACUCCAUUAUUUAUUACGGAGCUGCCCCGCCUGGGUGGCCGGACCCCUGGGCCUUGGGGCUGUGGAUCCU | 0.293
UGUGUCGACAGACUCAAGGACACAACCACCUCGACCUGGUCAUGUGGCAUGCCUGUGUAUGUGUGUAACAGGAUUCUGAAUGUUAGGUUGUAAUGCUAUUCCUGUAUGGG | 7.16
